Experimental data pooled from the literature.
± marks the error that the study gave.

Compound	assay	system	conditions	how to read	quantity	result
Cc1cc(C)c(CNC(=O)c2cc(Cl)c3c(c2C)O[C@@](C)([C@H]2CC[C@H](N(C)C)CC2)O3)c(=O)[nH]1	item: total drug	human	oral, 200 mg, cycle 1 day 15	–	accumulation ratio of AUCtau	1.19
COc1cc(Nc2ncc3c(n2)-c2ccc(Cl)cc2C(c2c(F)cccc2OC)=NC3)ccc1C(=O)O	item: Hypotension, grade 3	cancer patients, phase 1/2	oral, dose not given, together with: pembrolizumab	–	patients with adverse event	4%
CCC(=O)N(CCC(c1ccc2c(c1)OCO2)c1ccccc1OC)Cc1ccccc1 (stereo not shown)	–	mouse, blood	i.p., 60 mg/kg twice daily, 2 weeks	–	total CO2	14 mEq/L
[18F]c1ccc(-c2ccc3c(c2)[nH]c2ccncc23)cn1	ex vivo biodistribution	B6SJL mouse, normal, skin	intravenous, 30 min	–	SUV	0.311 ± 0.095
CC(C)n1c(Nc2cccnc2)nc2cnc(Nc3ccc(N4CCN(C)CC4)cc3)nc21	–	human, male, plasma	oral, dose not given, together with: gemfibrozil	baseline: without gemfibrozil	increase in AUC	~26%
COc1cc(C=CC(=O)O)ccc1O[C@@H]1O[C@H](C(=O)O)[C@@H](O)[C@H](O)[C@H]1O	–	human, cerebrospinal fluid	concentration not given, mean	–	CSF concentration	18.1 nM
O=C(Nc1nc2cccc(-c3ccc(CN4CCS(=O)(=O)CC4)cc3)n2n1)C1CC1	item: gingival bleeding	human rheumatoid arthritis patients	oral, 150 mg once daily, 4 weeks, regardless of relatedness	–	treatment-emergent adverse events	0%
CNC(=O)c1ccc(-c2cnc3ncc(Cc4ccc5ncccc5c4)n3n2)cc1F	–	human, moderate NCI classification, plasma	oral, 200 mg, adjusted geometric mean	–	AUC(0-t)	7.26 µg·h/mL
NC1(C(=O)N[C@@H](CCO)c2ccc(Cl)cc2)CCN(c2nc[nH]c3nccc2-3)CC1	–	metastatic CRPC patients	400 mg b.i.d., grade 3 to 4, treatment-related, together with: enzalutamide 160 mg daily	–	incidence of maculopapular rash	14.3%
Cn1cc(-c2cn3nccc3c(-c3cnn([C@]4(CC#N)C[C@@H](C#N)C4)c3)n2)cn1	–	healthy humans fasted, plasma	oral, 400 mg single dose, geometric mean	–	dose-normalised AUC(0-t)	6.9 ng·h/mL/mg
COc1ccc2c(=O)n(C)c(-c3ccccc3)nc2c1	–	male Sprague-Dawley rat, testis	oral, 30 mg/kg, 2 h	–	tissue concentration	32.2 ng/g
Cc1nc(C)c(-c2ccnc(Nc3ccc(N(C)C)c([N+](=O)[O-])c3)n2)s1	–	octanol/buffer, 40 mM buffer	pH 11	–	logP	4.07
C=CC(=O)Nc1cc(Nc2nccc(-c3cn(C)c4ccccc34)n2)c(OC)cc1N(C)CCN(C)C	–	human patients, plasma	oral, median	–	oral clearance	14.9 L/h
CCN1/C(=C/C(C)=O)Sc2ccc(F)cc21	–	cynomolgus monkey	oral, 100 mg/kg, 24 h post-dose	–	heart rate	109 ± 14 beats/min
Cc1cccc(NS(=O)(=O)c2cc(C(=O)Nc3ccccc3C(=O)N3CCOCC3)ccc2Cl)c1	–	octanol/buffer	pH 11, known kinase inactives set	–	logP	0.39
Cn1ncnc1[C@H]1c2n[nH]c(=O)c3cc(F)cc(c23)N[C@@H]1c1ccc(F)cc1	–	human patients, plasma	oral, 600 µg/m2, dose level DL4, median, together with: temozolomide 30 mg/m2 daily days 2-6	–	accumulation half-life	51.2 h
CO[C@H]1/C=C/O[C@@]2(C)Oc3c(C)c(O)c4c(O)c(c(/C=N/N5CCN(C)CC5)c(O)c4c3C2=O)NC(=O)/C(C)=C\C=C\[C@H](C)[C@H](O)[C@@H](C)[C@@H](O)[C@@H](C)[C@H](OC(C)=O)[C@@H]1C	–	healthy humans	oral, dose not given	–	adverse event Constipation	8.3%
COc1c(OCCCN2CCOCC2)ccc2c1N=C(NC(=O)c1cnc(N)nc1)N1CCN=C21	–	human	concentration not given, together with: rifampin	–	increase in V1	108%
C=CC(=O)NC1CCN(c2ncc3ncnc(Nc4ccc(Oc5ccc6c(c5)ncn6C)c(C)c4)c3n2)CC1	–	human, male, plasma	oral, 30 mg, fed and fasted	up to	time quantifiable in plasma	≤ 118 h
CN(C(=O)n1cnc(-c2cccnc2)c1)[C@H]1CC[C@H](O)CC1	–	rat, cerebellum	oral, 10 mg/kg daily for 5 days, 24 h	–	tissue concentration	15.5 ± 1.4 ng/g

Compound	assay	system	conditions	how to read	quantity	result
COc1ccccc1OCCNCC(O)COc1cccc2[nH]c3ccccc3c12 (stereo not shown)	–	0.2% w/v Kollidon VA64	pH 6.5, 37 °C, supersaturation ratio 5	–	nucleation induction time	2.72 ± 0.09 min
CCc1c(-c2ccccc2)c(-c2ccccc2)nn1-c1ccccc1-c1cccc(OCC(=O)O)c1	–	male Sprague-Dawley rat, testis	oral, 10 mg/kg, 1 h	–	concentration	220 ng/g
C=CC(=O)N(C)CCOc1c(N)ncnc1-c1cc(F)cc(NC(=O)c2ccc(C3CC3)cc2F)c1C	–	human, plasma	oral, 50 mg once daily, day 12	–	AUC	0.209 µg·h/mL
Cc1nsc(-c2nnc3n2CCN(C(=O)c2ccc(F)cc2)[C@@H]3C)n1	–	human, plasma	oral	–	Vd/F	160 L
Cc1ncnc2c1ccn2[C@@H]1C[C@H](Oc2cc(C(F)F)c(F)c3c2CNCC3)[C@@H](O)[C@H]1O	–	human	oral, 6 mg twice daily	baseline: AUC(tau) multiple over single dose	accumulation ratio	4.01
CN1C(=O)[C@@H](NC(=O)c2nnc(Cc3ccccc3)[nH]2)COc2cccnc21	–	healthy human, fasted, plasma	oral, 400 mg single dose, median	–	Tmax	4 h
C=CC(=O)Nc1cc(Nc2nccc(-c3cn(C)c4ccccc34)n2)c(OC)cc1N(C)CCN(C)C	storage stability	human dried blood spots	5 h, -80 °C, low QC level	–	recovery	90.3%
Cc1cc(NC(=O)c2cccc(NC(=O)/C=C/CN(C)C)c2)ccc1Nc1nccc(-c2cccnc2)n1	metabolic stability	Wistar rat, male, primary hepatocytes	1 µM, 10 min	–	compound remaining	90.1%
COc1cccc(-n2nnnc2SCC(=O)Nc2c(C)cc(C)cc2C)c1	–	octanol/buffer	pH 11, known kinase inactives set	–	logP	3.86
Cc1cc(C)c(CNC(=O)c2cc(Cl)c3c(c2C)O[C@@](C)([C@H]2CC[C@H](N(C)C)CC2)O3)c(=O)[nH]1	CTCAE v4.0, item: productive cough	human relapsed/refractory NHL	oral, 200 mg once daily, onset after cycle 1 day 1, overall treatment period	–	patients with grade ≥3 TEAE	4.2%
Nc1cccc2ccc(/C=C/C(=O)c3ccc(O)cc3)cc12	–	toluene	–	baseline: coumarin 153 in ethanol	fluorescence quantum yield	54 ± 0.3%
C=CC(=O)Nc1cc(Nc2nccc(Nc3cc(Cl)c(F)cc3C(C)(C)O)n2)c(OC)cc1N1CC[C@@H](N(C)C)C1	–	human patients, plasma	oral, 300 mg daily, cycle 2 day 1, geometric mean	–	Css,max	0.521 µg/mL
COc1ccccc1NC(=O)CSc1nnc(-c2ccccc2Cl)n1-c1ccccc1	–	octanol/buffer	pH 11, known kinase inactives set	–	logP	3.98
C=CC(=O)NC1CCN(c2ncc3ncnc(Nc4ccc(Oc5ccc6c(c5)ncn6C)c(C)c4)c3n2)CC1	–	healthy male volunteers, plasma	intravenous, 10 µg, [14C] microtracer	–	dose-normalised Cmax	63.5 pmol/L/µg
C[C@H](Oc1ccc(Br)cc1-c1ccon1)C(=O)O	–	human, plasma	400 mg once daily, day 10	baseline: day 1	accumulation ratio (Cmax)	0.811
C[C@@H](O)CCOC(=O)C[C@@H](C)O	item: pH	human, venous blood	oral, 60 min, unit not given	baseline: baseline	decrease	-0.07
CC1(CNC(=O)[C@H](CN)NC(=O)c2ccc(C#Cc3ccccc3)cc2)NC(=O)NC1=O (stereo partly shown)	–	octanol/buffer	pH 11	–	logP	0.62
N#Cc1ccc2c(c1)[C@H]1CCCN(C(=O)c3ccc4[nH]cnc4c3)[C@H]1C2	–	human	240 mg, day 15	baseline: baseline	cortisol level change	-84 nmol/L
C[C@@H](N)C1CCN(S(=O)(=O)c2cccc3cnccc23)CC1	–	healthy volunteers	250 mg, fasted	–	participants with epistaxis	0%
CC(C)(C(=O)N1CCOc2c(C#N)cncc2C1)C(F)F	item: Radiculopathy	human	oral, 40 mg, CSF pharmacokinetic cohort	–	subjects with adverse event	16.7%

Compound	assay	system	conditions	how to read	quantity	result
N[C@@H]1c2cccnc2[C@H](OC(=O)N2CCC(n3c(=O)[nH]c4ncccc43)CC2)CC[C@H]1c1cccc(F)c1F	–	human	oral, fed state	baseline: fasted state	decrease in bioavailability	31.5%
CCCCC[C@H](O)CC[C@@H]1[C@H]2Cc3cccc(OCC(=O)O)c3C[C@H]2C[C@H]1O	LC-MS/MS	Japanese PAH patients, plasma	inhaled, 54 µg, background ERA therapy	–	geometric mean AUC(0-last)	0.00048 µg·h/mL
Nc1c(CC(=O)O)cccc1C(=O)c1ccc(Br)cc1	–	cynomolgus monkey hepatocytes	4 °C, 10% monkey serum	–	passive uptake clearance	2 µL/min/10⁶ cells
O=C(O)c1cccc(C(=O)O)c1	–	betaine/propylene glycol DES-water	DES mass fraction 0.40	–	apparent dissolution enthalpy	12.1 kJ/mol
CC(C)COC(=O)c1ccc2c(c1)/C(=N/Nc1ccc(S(N)(=O)=O)cc1)C(=O)N2	–	octanol/buffer, 40 mM buffer	pH 11	–	logP	1.19
COc1ccc(Oc2cc(N(C)CCOc3ccc(CC4SC(=O)NC4=O)cc3)ncn2)cc1 (stereo not shown)	–	type 2 diabetes patients, serum	0.5 mg once daily, 12 weeks, real-world retrospective study	–	creatinine reduction	0.06 mg/dL
Cl.[2H]C([2H])([2H])CC(=O)c1cnc(NC(=O)C2CC2)cc1Nc1cccc(-c2ncn(C([2H])([2H])[2H])n2)c1OC	–	human, fasted, multiple dose	oral, 20 mg once daily, tablet, day 1, geometric mean	–	Cmax	0.171 µg/mL
CCS(=O)(=O)Nc1ccc(Oc2ccc(F)cc2F)c(-c2cn(C)c(=O)c3[nH]ccc23)c1	–	human, plasma	oral, 2.5 mg, cycle 1 day 8, geometric mean	–	dose-normalised Cmax	10.8 ng/mL/mg
CN(CC#N)C(=O)C[C@H](Nc1nc2ccccc2[nH]1)c1cccc(C(F)(F)F)c1	–	human	intravenous infusion, 4 mg/kg, 1 mg/mL formulation	–	steady-state volume of distribution	52 ± 6.49 L
CCc1cc(C(=O)NC)c2nccc(N3CCc4c(cc(Cn5ccnc5)cc4-c4cn(C)nc4C(F)(F)F)C3=O)c2c1	–	Sprague Dawley rats	oral, 50 mg/kg once daily, 7 days	–	serum ALP activity	408 ± 74.2 U/L
Cc1cc(-c2nccc3c2ccn3CC(=O)Nc2ccc(-c3cnccn3)cn2)ccn1	–	human	MAD part, 15 mg once daily	–	subjects with any grade 3 TEAE	0%
O=C1NCCc2nc(OCc3cccc(F)c3)ccc21	item: Tremors	Sprague-Dawley rat, male	oral, 100 mg/kg, 1 h, score 0 none to 2 full	direction not given	Irwin test score	0
CNCc1ccc(-c2[nH]c3cc(F)cc4c3c2CCNC4=O)cc1	item: any adverse event	human patients	oral, 600 mg twice daily, grade 2	–	patients with adverse event	23.1%
C[C@@H](O)[C@H](NC(=O)c1ccc(-c2ccccc2)cc1)C(=O)NO	–	octanol/buffer	pH 11	–	logP	0.07
CNC(=O)c1ccc(-c2cnc3ncc(Cc4ccc5ncccc5c4)n3n2)cc1F	item: Hypoalbuminemia	cancer patients	oral, dose not given, dose escalation, grade 3-4	–	patients with adverse event	3%
CNC(=O)c1cc(Oc2ccc(NC(=O)Nc3cc(C(C)(C)C)nn3-c3ccc4ncccc4c3)c(F)c2)ccn1	item: worst grade 2	human	oral, dose not given, cycles 1 and 2, Low AUC(0-4 h) subgroup	–	patients with musculoskeletal disorder AE	7%
Cn1nc2c(=O)n(C3CC3)cnc2c1[C@](O)(c1cnc(C(F)(F)F)c(Cl)c1)C(F)(F)F	–	rat Sprague-Dawley male, blood	intravenous, 1 mg/kg	–	CLint,u	0.762 L/h/kg
O=C(c1cccnc1-c1ccncc1)N1CCC(O)(Cc2ccccc2)CC1	–	healthy Japanese adults, plasma	oral, 200 mg single dose	–	AUC(0-inf)/dose	3.6 ng·h/mL/mg

Some of these lines once more:
Compound	assay	system	conditions	how to read	quantity	result
Cc1cc(C)c(CNC(=O)c2cc(Cl)c3c(c2C)O[C@@](C)([C@H]2CC[C@H](N(C)C)CC2)O3)c(=O)[nH]1	item: total drug	human	oral, 200 mg, cycle 1 day 15	–	accumulation ratio of AUCtau	1.19
COc1cc(Nc2ncc3c(n2)-c2ccc(Cl)cc2C(c2c(F)cccc2OC)=NC3)ccc1C(=O)O	item: Hypotension, grade 3	cancer patients, phase 1/2	oral, dose not given, together with: pembrolizumab	–	patients with adverse event	4%
CCC(=O)N(CCC(c1ccc2c(c1)OCO2)c1ccccc1OC)Cc1ccccc1 (stereo not shown)	–	mouse, blood	i.p., 60 mg/kg twice daily, 2 weeks	–	total CO2	14 mEq/L
[18F]c1ccc(-c2ccc3c(c2)[nH]c2ccncc23)cn1	ex vivo biodistribution	B6SJL mouse, normal, skin	intravenous, 30 min	–	SUV	0.311 ± 0.095
